Experimental data from different studies.
Protocols differ between the studies behind these lines. “And” joins repeats or separate records; there may be more than shown.
CSNK1A1: Casein kinase I isoform alpha (CSNK1A1, Homo sapiens, UniProt P48729)
Chain of UniProt P48729 (whole entry, looked up): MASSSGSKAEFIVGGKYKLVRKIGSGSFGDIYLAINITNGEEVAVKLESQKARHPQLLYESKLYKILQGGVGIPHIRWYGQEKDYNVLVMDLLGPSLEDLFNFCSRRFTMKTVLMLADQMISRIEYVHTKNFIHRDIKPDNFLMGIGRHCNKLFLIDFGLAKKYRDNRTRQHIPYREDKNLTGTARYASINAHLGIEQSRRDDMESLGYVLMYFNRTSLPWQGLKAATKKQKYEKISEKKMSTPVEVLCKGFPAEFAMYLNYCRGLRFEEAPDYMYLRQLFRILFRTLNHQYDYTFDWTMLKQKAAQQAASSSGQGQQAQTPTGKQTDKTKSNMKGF
IAPP: Islet amyloid polypeptide (IAPP, Homo sapiens, UniProt P10997)
Chain of UniProt P10997 (whole entry, looked up): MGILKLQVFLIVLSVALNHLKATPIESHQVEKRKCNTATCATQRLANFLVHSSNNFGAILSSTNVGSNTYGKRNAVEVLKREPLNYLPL
CSNK1D: Casein kinase I isoform delta (CSNK1D, Homo sapiens, UniProt P48730)
Chain of UniProt P48730 (whole entry, looked up): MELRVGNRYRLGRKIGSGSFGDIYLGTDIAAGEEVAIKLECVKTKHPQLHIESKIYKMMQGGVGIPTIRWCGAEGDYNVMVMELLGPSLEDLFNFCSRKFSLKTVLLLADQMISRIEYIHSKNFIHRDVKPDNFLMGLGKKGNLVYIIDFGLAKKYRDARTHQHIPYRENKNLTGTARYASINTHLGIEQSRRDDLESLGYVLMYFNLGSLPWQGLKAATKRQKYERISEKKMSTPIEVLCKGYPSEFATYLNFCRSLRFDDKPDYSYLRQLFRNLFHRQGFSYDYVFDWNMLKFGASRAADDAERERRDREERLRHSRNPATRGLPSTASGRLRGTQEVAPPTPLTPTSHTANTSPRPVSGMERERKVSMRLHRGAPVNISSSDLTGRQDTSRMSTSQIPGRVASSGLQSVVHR
CTSD: Cathepsin D (CTSD, Homo sapiens, UniProt P07339)
Chain of UniProt Q47319 (whole entry, unmodified, looked up): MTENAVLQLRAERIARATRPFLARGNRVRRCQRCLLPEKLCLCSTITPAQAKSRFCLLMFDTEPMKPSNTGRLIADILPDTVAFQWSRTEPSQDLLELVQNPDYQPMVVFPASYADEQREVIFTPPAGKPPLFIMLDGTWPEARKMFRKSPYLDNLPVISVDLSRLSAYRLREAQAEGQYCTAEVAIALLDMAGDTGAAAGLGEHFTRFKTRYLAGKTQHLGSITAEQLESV
Chain of UniProt P09622 (whole entry, unmodified, looked up): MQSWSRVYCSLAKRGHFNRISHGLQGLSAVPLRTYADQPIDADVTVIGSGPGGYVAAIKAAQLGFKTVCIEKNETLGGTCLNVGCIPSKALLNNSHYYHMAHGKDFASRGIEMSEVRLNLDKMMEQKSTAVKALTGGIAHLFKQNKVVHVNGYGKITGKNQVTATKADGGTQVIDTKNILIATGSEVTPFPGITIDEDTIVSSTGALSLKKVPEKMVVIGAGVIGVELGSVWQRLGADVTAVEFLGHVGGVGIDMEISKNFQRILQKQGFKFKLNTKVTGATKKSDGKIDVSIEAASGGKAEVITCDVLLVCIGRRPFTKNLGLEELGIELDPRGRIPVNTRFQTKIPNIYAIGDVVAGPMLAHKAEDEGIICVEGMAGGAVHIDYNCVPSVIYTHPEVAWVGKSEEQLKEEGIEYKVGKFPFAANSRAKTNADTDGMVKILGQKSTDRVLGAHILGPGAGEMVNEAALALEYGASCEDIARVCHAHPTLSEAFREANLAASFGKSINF
Chain of UniProt P07339 (whole entry, looked up): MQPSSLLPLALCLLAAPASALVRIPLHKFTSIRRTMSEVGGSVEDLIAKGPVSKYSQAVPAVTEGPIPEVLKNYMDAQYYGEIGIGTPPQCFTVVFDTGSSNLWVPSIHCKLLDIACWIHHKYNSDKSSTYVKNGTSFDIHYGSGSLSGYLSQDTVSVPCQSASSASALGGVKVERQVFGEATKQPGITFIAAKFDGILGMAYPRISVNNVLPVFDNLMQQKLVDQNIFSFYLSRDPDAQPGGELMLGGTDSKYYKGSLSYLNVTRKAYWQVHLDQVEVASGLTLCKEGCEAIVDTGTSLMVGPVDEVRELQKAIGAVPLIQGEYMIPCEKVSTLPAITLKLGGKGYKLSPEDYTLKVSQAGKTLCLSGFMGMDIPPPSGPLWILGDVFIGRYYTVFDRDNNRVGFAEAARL
Chain of UniProt Q15109 (whole entry, looked up): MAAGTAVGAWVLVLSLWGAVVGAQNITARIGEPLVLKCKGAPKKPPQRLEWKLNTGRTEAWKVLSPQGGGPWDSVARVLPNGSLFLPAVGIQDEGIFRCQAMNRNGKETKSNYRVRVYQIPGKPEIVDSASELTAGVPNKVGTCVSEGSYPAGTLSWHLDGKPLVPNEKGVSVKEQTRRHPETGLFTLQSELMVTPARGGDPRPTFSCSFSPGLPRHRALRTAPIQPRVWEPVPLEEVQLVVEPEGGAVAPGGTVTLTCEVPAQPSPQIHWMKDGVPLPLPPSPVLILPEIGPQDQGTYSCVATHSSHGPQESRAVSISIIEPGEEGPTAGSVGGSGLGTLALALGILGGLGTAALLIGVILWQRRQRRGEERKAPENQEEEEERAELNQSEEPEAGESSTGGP
Chain of UniProt Q8TBX8 (whole entry, looked up): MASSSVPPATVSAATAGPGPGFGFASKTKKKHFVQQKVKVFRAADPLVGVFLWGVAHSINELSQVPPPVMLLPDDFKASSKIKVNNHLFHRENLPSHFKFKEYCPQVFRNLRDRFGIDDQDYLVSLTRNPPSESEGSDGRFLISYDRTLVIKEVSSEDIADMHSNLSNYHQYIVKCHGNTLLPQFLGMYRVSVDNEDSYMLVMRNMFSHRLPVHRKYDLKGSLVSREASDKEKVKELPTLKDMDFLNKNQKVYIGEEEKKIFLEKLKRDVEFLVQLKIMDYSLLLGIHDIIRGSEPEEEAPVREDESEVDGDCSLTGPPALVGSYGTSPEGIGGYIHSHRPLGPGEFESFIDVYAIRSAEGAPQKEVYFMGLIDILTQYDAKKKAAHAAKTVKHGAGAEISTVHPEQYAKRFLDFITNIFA
Chain of UniProt P26196 (whole entry, looked up): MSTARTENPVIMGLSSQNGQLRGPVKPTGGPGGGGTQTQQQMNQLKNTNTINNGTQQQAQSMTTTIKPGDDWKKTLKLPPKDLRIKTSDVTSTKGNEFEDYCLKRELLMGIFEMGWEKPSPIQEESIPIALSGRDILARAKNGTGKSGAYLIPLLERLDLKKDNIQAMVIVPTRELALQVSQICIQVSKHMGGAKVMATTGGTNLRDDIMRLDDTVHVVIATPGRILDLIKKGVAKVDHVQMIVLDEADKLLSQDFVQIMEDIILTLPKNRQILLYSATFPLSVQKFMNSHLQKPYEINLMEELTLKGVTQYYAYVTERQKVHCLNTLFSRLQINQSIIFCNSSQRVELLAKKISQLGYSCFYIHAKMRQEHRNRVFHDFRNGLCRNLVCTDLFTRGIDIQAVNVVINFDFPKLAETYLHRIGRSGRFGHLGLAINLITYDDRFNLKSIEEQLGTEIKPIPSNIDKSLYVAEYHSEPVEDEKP
Chain of UniProt P40261 (whole entry, looked up): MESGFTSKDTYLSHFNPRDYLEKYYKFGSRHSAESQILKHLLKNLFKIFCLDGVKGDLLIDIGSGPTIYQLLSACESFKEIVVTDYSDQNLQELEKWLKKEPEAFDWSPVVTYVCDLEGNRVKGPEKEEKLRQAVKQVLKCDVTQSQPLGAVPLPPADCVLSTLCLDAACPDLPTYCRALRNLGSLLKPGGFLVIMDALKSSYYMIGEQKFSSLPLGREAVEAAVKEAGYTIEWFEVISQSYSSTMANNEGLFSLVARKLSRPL
Chain of UniProt P30048 (whole entry, looked up): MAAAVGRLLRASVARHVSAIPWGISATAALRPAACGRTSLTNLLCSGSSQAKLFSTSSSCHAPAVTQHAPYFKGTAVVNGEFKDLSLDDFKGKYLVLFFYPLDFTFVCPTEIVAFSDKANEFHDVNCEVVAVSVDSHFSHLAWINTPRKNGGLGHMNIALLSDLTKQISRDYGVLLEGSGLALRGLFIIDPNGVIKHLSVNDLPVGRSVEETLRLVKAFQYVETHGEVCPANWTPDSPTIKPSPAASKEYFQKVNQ
Chain of UniProt P16234 (whole entry, looked up): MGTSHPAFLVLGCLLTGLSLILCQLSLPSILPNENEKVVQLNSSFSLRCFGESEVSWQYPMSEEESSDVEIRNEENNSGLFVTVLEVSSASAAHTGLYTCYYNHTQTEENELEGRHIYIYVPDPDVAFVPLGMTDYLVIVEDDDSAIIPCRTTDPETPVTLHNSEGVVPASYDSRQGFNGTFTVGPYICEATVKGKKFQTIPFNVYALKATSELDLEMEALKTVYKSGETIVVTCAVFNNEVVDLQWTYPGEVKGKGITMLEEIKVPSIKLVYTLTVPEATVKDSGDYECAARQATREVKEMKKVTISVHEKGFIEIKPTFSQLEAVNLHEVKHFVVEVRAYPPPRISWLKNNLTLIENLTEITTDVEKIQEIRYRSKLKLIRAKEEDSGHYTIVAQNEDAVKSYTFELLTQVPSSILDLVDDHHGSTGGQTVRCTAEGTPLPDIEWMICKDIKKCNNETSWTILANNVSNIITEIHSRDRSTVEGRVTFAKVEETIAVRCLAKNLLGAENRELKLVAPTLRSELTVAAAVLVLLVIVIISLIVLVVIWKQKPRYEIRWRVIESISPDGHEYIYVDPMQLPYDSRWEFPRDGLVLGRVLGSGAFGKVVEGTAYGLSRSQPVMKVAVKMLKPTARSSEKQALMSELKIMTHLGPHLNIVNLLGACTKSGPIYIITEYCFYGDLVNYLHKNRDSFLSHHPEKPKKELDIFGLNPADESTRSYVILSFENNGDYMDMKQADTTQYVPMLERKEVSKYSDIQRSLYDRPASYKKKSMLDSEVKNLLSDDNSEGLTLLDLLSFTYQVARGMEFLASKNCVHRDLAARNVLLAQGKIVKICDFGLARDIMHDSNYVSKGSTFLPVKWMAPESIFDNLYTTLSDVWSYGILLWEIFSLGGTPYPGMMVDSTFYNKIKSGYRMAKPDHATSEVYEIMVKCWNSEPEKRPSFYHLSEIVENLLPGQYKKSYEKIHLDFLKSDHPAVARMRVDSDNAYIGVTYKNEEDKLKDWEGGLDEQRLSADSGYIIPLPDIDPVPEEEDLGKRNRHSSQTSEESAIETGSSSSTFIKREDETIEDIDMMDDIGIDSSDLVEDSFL

| SMILES | target | assay | setting | Kd |
| --- | --- | --- | --- | --- |
| Cc1ncsc1-c1ccc([C@H](C)NC(=O)[C@@H]2C[C@@H](O)CN2C(=O)[C@@H](NC(=O)CCCCCC(=O)N2CCC3(CC2)CCN(c2cncc(Nc4ncc(Cl)c(-c5cccc(-c6ccccc6)c5)n4)c2)C3=O)C(C)(C)C)cc1 | PIP4K2C (Homo sapiens, UniProt Q8TBX8) | binding |  | < 0.045 µM and 0.042 µM |
| N#Cc1ccc2c(CN3CCOCC3)cc(-c3ccc([C@H]4CCC(=O)N4)cc3)nc2c1 | AGER (Homo sapiens, UniProt Q15109) | binding, fluorescence |  | ~0.0003 µM and 0.0003 µM |
| Cc1n[nH]c(N)c1-c1ccccc1 | CSNK1A1 | binding, SPR |  | > 50 µM |
| Cc1cnc(-c2ccc(-c3ccc(NC(=O)Nc4c(F)cc(F)cc4F)cc3F)c3c2C(=O)NC3)[nH]1 | PDGFRA (Homo sapiens, UniProt P16234) | binding, competition with immobilised ligand |  | 0.0021 µM |
| Cc1cc(Nc2ccc(Cl)cc2)c2ccccc2n1 | CSNK1A1 | binding, SPR |  | > 50 µM |
| C[C@@H]1O[C@@H](O[C@H]2[C@H](Oc3cc(O)c4c(c3)O[C@H](c3ccc(O)cc3)CC4=O)O[C@H](CO)[C@@H](O)[C@@H]2O)[C@H](O)[C@H](O)[C@H]1O | IAPP | binding, ITC |  | 5.35 µM |
| CCCN1CCN(c2ccc(-c3cncc(Cl)c3N3CCC4(CCNC4=O)CC3)cc2)CC1 | CDK9 (Homo sapiens, UniProt P50750) | cell-free assay | lysate | 4.6 µM |
| Nc1ncnc2c1ncn2[C@@H]1O[C@H](COP(=O)(O)OP(=O)(O)OP(=O)(O)O)[C@@H](O)[C@H]1O | dnaA (Escherichia coli, UniProt P03004, G79D) | binding |  | 0.04 µM |
| NC(=O)c1ccc[n+]([C@@H]2O[C@H](COP(=O)([O-])OP(=O)(O)OC[C@H]3O[C@@H](n4cnc5c(N)ncnc54)[C@H](O)[C@@H]3O)[C@@H](O)[C@H]2O)c1 | DLD (Homo sapiens, UniProt P09622) | binding, SPR |  | 1.36 µM |
| Nc1ncnc2c1ncn2[C@@H]1O[C@H](C[C@@H](N)CC[C@H](N)C(=O)O)[C@@H](O)[C@H]1O | tapT (Escherichia coli, UniProt Q47319) | binding, SPR |  | 795 µM |
| OC[C@H]1OC(O)[C@H](O)[C@@H](O)[C@@H]1O (stereo partly drawn) | Probable ATP-dependent RNA helicase DDX6 (Homo sapiens, UniProt P26196) | binding, MST |  | 629 µM |
| C/C=C(\C=O)[C@@H]1C[C@H]2c3[nH]c4ccccc4c3CCN2C=C1C(=O)OC | PRDX3 (Homo sapiens, UniProt P30048) | binding, SPR |  | 0.57 µM |
| CCc1ccc(C2C(C#N)C(=N)SC(=N)C2C#N)cc1 (stereo not drawn) | CSNK1A1 | binding, SPR |  | > 50 µM |
| NC(=O)c1cccnc1 | NNMT (Homo sapiens, UniProt P40261) | binding, NMR |  | > 5000 µM |
| CNC(=O)c1ccc(OC)c(Br)c1 | CSNK1A1 | binding, SPR |  | > 50 µM |
| Cc1cc2nc3c(=O)[nH]c(=O)nc-3n(C[C@H](O)[C@H](O)[C@H](O)COP(=O)(O)OP(=O)(O)OC[C@H]3O[C@@H](n4cnc5c(N)ncnc54)[C@H](O)[C@@H]3O)c2cc1C | DLD (Homo sapiens, UniProt P09622, K430Q) | binding, SPR |  | 1.83 µM |
| Brc1cnc2nccnc2c1 | CSNK1A1 | binding, SPR |  | > 50 µM |
| C[C@@H]1O[C@@H](OC[C@H]2O[C@@H](Oc3cc(O)c4c(c3)O[C@H](c3ccc(O)cc3)CC4=O)[C@H](O)[C@@H](O)[C@@H]2O)[C@H](O)[C@H](O)[C@H]1O | IAPP | binding, ITC |  | 5.49 µM |
| O=C(COc1cccc2ccccc12)Nc1nc2ccccc2[nH]1 | CSNK1A1 | binding, SPR |  | 1.1 µM |
| C[S+](CC[C@H](N)C(=O)O)C[C@H]1O[C@@H](n2cnc3c(N)ncnc32)[C@H](O)[C@@H]1O (stereo partly drawn) | tapT (Escherichia coli, UniProt Q47319, D137N) | binding, ITC |  | 390 µM |
| N#Cc1cc(I)c(O)c([N+](=O)[O-])c1 | CSNK1D | binding, SPR |  | > 50 µM |
| CC(C)CC(=O)N[C@H](C(=O)N[C@H](C(=O)N[C@@H](CC(C)C)[C@@H](O)CC(=O)N[C@@H](C)C(=O)N[C@@H](CC(C)C)[C@@H](O)CC(N)=O)C(C)C)C(C)C | CTSD | binding, SPR |  | 0.72 µM |
| O=C(Nc1ccccc1)Nc1ccccn1 | CSNK1D | binding, SPR |  | > 50 µM |
| CC(C)CC(=O)N[C@H](C(=O)N[C@H](C(=O)N[C@@H](CC(C)C)[C@@H](O)CC(=O)N[C@@H](C)C(=O)N[C@@H](CC(C)C)[C@@H](O)CC(=O)NCCOCCC(=O)NCCCC[C@H](NC(=O)CN1CCN(CC(=O)O)CCN(CC(=O)O)CC1)C(=O)O)C(C)C)C(C)C | CTSD | binding, SPR |  | 3.2 µM |

Repeated from above:
| SMILES | target | assay | setting | Kd |
| --- | --- | --- | --- | --- |
| CNC(=O)c1ccc(OC)c(Br)c1 | CSNK1A1 | binding, SPR |  | > 50 µM |
| CCCN1CCN(c2ccc(-c3cncc(Cl)c3N3CCC4(CCNC4=O)CC3)cc2)CC1 | CDK9 (Homo sapiens, UniProt P50750) | cell-free assay | lysate | 4.6 µM |
| NC(=O)c1ccc[n+]([C@@H]2O[C@H](COP(=O)([O-])OP(=O)(O)OC[C@H]3O[C@@H](n4cnc5c(N)ncnc54)[C@H](O)[C@@H]3O)[C@@H](O)[C@H]2O)c1 | DLD (Homo sapiens, UniProt P09622) | binding, SPR |  | 1.36 µM |
